# Assay results from different studies.
# Lines come from different studies, so protocols differ.
# Target: RAC-gamma serine/threonine-protein kinase (AKT3, Homo sapiens, UniProt Q9Y243)
# UniProt Q9Y243, sequence (whole entry, looked up): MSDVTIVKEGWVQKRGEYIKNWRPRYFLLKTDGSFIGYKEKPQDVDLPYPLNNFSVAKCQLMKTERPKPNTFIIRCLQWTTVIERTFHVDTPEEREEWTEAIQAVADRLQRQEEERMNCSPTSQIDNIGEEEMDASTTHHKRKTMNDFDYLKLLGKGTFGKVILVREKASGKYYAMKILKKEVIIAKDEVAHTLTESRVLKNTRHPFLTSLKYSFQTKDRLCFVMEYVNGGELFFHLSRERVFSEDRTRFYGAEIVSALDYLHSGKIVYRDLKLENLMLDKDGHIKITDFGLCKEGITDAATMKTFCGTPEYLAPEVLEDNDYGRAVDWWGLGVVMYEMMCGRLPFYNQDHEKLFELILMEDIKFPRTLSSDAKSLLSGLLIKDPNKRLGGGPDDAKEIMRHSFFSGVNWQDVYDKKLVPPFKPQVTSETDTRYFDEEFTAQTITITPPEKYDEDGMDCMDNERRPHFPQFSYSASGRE
Compound,assay,conditions,scale,measurement,value
Cc1cnc2nc1Nc1cccc(c1)COC/C=C/COCc1cc(ccc1OCCN1CCOCC1)N2,binding,0.1 µM,,remaining binding,100%
CNC(=O)C1CCN(c2cc(C)c(F)cc2NC(=O)c2ccc(-c3cc(O)ccc3C)c(C)c2)CC1,"binding, competition with immobilised ligand",1 µM,,remaining binding,98%
NC(=O)C[C@H]1CCc2sc3ncnc(O[C@H]4CC[C@H](N5CCOCC5)CC4)c3c21,"enzyme activity, inhibitor",10 µM,,inhibition,-2%
CN1CCN(Cc2ccc(-c3ccc(CO[C@H]4CCC[C@@H]4NC(=O)c4cc(-c5cnn(C)c5)cnc4N)cc3)cc2)CC1,"enzyme activity, inhibitor",0.1 µM,,inhibition,6%
Cc1ccc(-c2c(/C=C(\C#N)C(=O)NC(C)C)n(CCCO)c3ncnc(N)c23)cc1,"cell-free assay, competition with immobilised ligand",1 µM,,remaining binding,100%
CCn1cc(C(=O)O)c(=O)c2c(N)c(F)c(NC3CCCCC3)cc21,kinase activity,"0.1 µM, together with: ATP at Km",,inhibition,6.2%
C=CC(=O)N1CCCC(n2c(=O)c3ncccc3n(Cc3ccc(Oc4ccccc4)cc3)c2=O)C1 (stereo not drawn),"cell-free assay, competition with immobilised ligand",1 µM,,remaining binding,100%
C=CC(=O)N1CCc2ccc(-n3c(=O)ccc4cnc5ccc(-c6cnn(C)c6)cc5c43)cc21,KINOMEscan,1 µM,relative to: DMSO control,remaining binding,90%
O=c1c(-c2ccc(Cl)c(CN3CCOCC3)c2)coc2cc(O)ccc12,"enzyme activity, inhibitor",1 µM,,remaining activity,111%
O=C=[N][Ru-4]123([n]4c5ccc(O)cc5c5c6c(c7cc(F)c[n+]1c7c54)C(=O)NC6=O)[S+]1CC[S+]2CC[S+]3CC1 (stereo not drawn),enzyme activity,"100 nM, human enzyme, together with: 10 µM ATP",relative to: untreated,remaining activity,49%
O=C(Cc1ccc(OCc2ccccc2)cc1)NC1(C(=O)O)CCN(C(=O)c2ccc(-c3cccc(Cl)c3)cc2)CC1,"enzyme activity, inhibitor",10 µM,,activity vs control,106%
Cc1cccc(O[C@H]2CCC[C@@H](C(C)CNCc3ccncc3)C2)c1 (relative stereo),"enzyme activity, inhibitor",1 µM,,inhibition,-5%
CNC(=O)C[C@H](Cc1ccc(C#N)cc1)NC(=O)c1cc(-c2ccc(CN[C@H](C)c3ccc(C)cc3)o2)ccc1Cl,"enzyme activity, inhibitor",1 µM,,activity vs control,95%
Cc1nc2c(F)cc(-c3nc(Nc4ccc(CNC(=O)CCCCCCC(=O)NO)cc4)ncc3F)cc2n1C(C)C,"enzyme activity, inhibitor",1 µM,,inhibition,56%
C=CC(=O)Nc1cccc(-c2cnc3[nH]cc(C(=O)NC(C)(C)C)c3n2)c1,"enzyme activity, inhibitor",0.1 µM,,inhibition,-1%

# Some of these lines once more:
Compound,assay,conditions,scale,measurement,value
CNC(=O)C[C@H](Cc1ccc(C#N)cc1)NC(=O)c1cc(-c2ccc(CN[C@H](C)c3ccc(C)cc3)o2)ccc1Cl,"enzyme activity, inhibitor",1 µM,,activity vs control,95%
